{"data": "Measurements gathered from unrelated publications", "note": "Each numbered part is a random draw from the data of one study; scales do not carry over between parts. “And” joins repeats or separate records; there may be more than shown.", "UniProt P28566, sequence (whole entry, looked up)": "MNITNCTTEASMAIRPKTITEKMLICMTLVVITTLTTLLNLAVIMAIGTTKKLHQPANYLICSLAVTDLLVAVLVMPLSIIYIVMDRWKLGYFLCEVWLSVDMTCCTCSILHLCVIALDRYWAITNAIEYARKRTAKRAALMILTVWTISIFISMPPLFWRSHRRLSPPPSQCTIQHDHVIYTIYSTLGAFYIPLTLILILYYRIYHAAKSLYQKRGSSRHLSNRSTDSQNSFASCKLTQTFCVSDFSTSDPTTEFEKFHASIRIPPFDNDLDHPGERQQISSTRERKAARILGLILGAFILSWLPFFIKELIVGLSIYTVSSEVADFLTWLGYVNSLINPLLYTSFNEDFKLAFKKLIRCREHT"}
{"data": "Study 1", "SMILES": "CC(C)(C)c1cnc(CSc2cnc(NC(=O)C3CCN(CCCCCSc4cccc5c4CN(C4CCC(=O)NC4=O)C5=O)CC3)s2)o1 (centres unmarked)", "target": "Cyclin-dependent kinase 9 (CDK9, Homo sapiens, UniProt P50750)", "cells": "HuT78", "time": "10 h", "UniProt P50750, sequence (whole entry, looked up)": "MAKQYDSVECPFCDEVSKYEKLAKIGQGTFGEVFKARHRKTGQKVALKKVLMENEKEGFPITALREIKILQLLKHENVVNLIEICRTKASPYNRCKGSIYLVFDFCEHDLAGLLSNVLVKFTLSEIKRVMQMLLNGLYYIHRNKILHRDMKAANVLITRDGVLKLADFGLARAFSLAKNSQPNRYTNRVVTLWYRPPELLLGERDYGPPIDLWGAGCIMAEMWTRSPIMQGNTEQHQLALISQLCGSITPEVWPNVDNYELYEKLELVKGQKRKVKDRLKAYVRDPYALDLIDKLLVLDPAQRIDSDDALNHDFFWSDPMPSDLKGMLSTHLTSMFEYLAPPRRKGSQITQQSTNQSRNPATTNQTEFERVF"}
{"conditions": "0.25 µM", "remaining activity": "36.8%"}
{"conditions": "0.05 µM", "remaining activity": "24.5%"}
{"conditions": "0.5 µM", "remaining activity": "37.3%"}
{"conditions": "0.025 µM", "remaining activity": "38%"}
{"conditions": "0.01 µM", "remaining activity": "47.8%"}
{"data": "Study 2", "target": "Serine/threonine-protein kinase PAK 4 (PAK4, Homo sapiens, UniProt O96013)", "read-out": "enzyme activity", "action": "inhibitor", "concentration": "0.5 µM", "relative to": "control", "UniProt O96013, sequence (whole entry, looked up)": "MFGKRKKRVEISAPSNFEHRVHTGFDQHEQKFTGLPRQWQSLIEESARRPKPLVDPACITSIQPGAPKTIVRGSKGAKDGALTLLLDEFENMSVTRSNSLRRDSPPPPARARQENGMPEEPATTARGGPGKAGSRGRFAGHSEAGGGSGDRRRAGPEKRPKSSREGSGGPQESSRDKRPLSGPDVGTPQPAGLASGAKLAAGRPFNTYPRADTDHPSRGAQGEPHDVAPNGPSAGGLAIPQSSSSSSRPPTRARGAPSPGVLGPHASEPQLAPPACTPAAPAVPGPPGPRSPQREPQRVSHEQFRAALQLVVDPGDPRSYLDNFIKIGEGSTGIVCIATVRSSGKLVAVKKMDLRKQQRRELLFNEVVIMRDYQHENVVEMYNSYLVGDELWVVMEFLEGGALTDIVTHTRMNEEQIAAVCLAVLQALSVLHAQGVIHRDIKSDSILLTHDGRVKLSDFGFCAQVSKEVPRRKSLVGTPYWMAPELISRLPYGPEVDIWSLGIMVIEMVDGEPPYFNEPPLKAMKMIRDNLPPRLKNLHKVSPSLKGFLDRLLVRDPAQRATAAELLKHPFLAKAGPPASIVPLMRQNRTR"}
{"SMILES": "c1ccc(-c2cnc(Nc3ccc(OCCN4CCCC4)cc3)s2)cc1", "remaining activity [%]": 106}
{"SMILES": "CCN(CC)CCNC(=O)c1c(C)[nH]c(/C=C2\\C(=O)Nc3ccc(Cl)cc32)c1C", "remaining activity [%]": 76.7}
{"SMILES": "COc1cc2c(cc1OC)-c1[nH]nc(Nc3cccc(F)c3)c1C2", "remaining activity [%]": 89.9}
{"SMILES": "C[C@@H]1CCN(C(=O)CC#N)C[C@@H]1N(C)c1ncnc2[nH]ccc12", "remaining activity [%]": 99.2}
{"SMILES": "CCN(CC)C(=O)c1ccc(Nc2nc(OCC3CCCCC3)c3[nH]cnc3n2)cc1", "remaining activity [%]": 51.5}
{"SMILES": "CCN(CC)CCNC(=O)c1c(C)[nH]c(/C=C2\\C(=O)Nc3ccc(F)cc32)c1C", "remaining activity [%]": 80.9}
{"SMILES": "Cc1cc2ncc(-c3ccccc3)nc2cc1C", "remaining activity [%]": 105}
{"SMILES": "CN([C@@H](Cc1ccc(OS(=O)(=O)c2cccc3cnccc23)cc1)C(=O)N1CCN(c2ccccc2)CC1)S(=O)(=O)c1cccc2cnccc12", "remaining activity [%]": 94.6}
{"SMILES": "CCOc1nc(NC(=O)Cc2cc(OC)ccc2OC)cc(N)c1C#N", "remaining activity [%]": 91.8}
{"SMILES": "Cn1nc2c3c(cccc31)C(=O)c1ccccc1-2", "remaining activity [%]": 90.4}
{"SMILES": "CN(C)C[C@H]1CCn2c(c(C3=C(c4cn(C)c5ccccc45)C(=O)NC3=O)c3ccccc32)C1", "remaining activity [%]": 104}
{"SMILES": "O=c1cc(-c2cccc3c2Sc2ccccc2S3)oc(N2CCOCC2)c1", "remaining activity [%]": 116}
{"SMILES": "Cc1cn(-c2cc(NC(=O)c3ccc(C)c(Nc4nccc(-c5cccnc5)n4)c3)cc(C(F)(F)F)c2)cn1", "remaining activity [%]": 88.9}
{"SMILES": "O=C1C(Cl)=C(N2C(=O)CCC2=O)C(=O)c2ccccc21", "remaining activity [%]": 114}
{"SMILES": "O=C1c2ccccc2-c2n[nH]c3cccc1c23", "remaining activity [%]": 99.4}
{"SMILES": "O=C(NC(NC(=S)Nc1ccc(F)c([N+](=O)[O-])c1)C(Cl)(Cl)Cl)C(c1ccccc1)c1ccccc1 (centres unmarked)", "remaining activity [%]": 118}
{"SMILES": "Nc1cccc(-c2cc3c(Oc4cccc(O)c4)ncnc3[nH]2)c1", "remaining activity [%]": 99.8}
{"SMILES": "Cc1nc2cc3nc(-c4cccs4)cnc3cc2n1C", "remaining activity [%]": 126}
{"data": "Study 3", "cell line": "HaCaT", "concentration": "100 µM", "time": "18 h"}
{"SMILES": "CO[C@H]1C[C@H](O[C@H]2[C@H](C)O[C@@H](O[C@@H]3/C(C)=C/C[C@@H]4C[C@@H](C[C@]5(C=C[C@H](C)[C@@H](C6CCCCC6)O5)O4)OC(=O)[C@@H]4C=C(C)[C@@H](O)[C@H]5OC/C(=C\\C=C\\[C@@H]3C)[C@]54O)C[C@@H]2OC)O[C@@H](C)[C@@H]1O", "viability": "18.6%"}
{"SMILES": "COc1cc(NS(=O)(=O)c2ccc(N)cc2)nc(OC)n1", "viability": "87%"}
{"SMILES": "COc1ccc2cc1Oc1ccc(cc1)C[C@H]1c3cc(c(OC)cc3CCN1C)Oc1c(OC)c(OC)cc3c1[C@H](C2)N(C)CC3", "viability": "20.4%"}
{"SMILES": "CC(C)(C)NC[C@H](O)COc1nsnc1N1CCOCC1", "viability": "95.1%"}
{"SMILES": "Cc1onc(-c2c(Cl)cccc2Cl)c1C(=O)N[C@@H]1C(=O)N2[C@@H]1SC(C)(C)[C@@H]2C(=O)O", "viability": "114%"}
{"SMILES": "COc1ccc(-n2nc(C(N)=O)c3c2C(=O)N(c2ccc(N4CCCCC4=O)cc2)CC3)cc1", "viability": "82%"}
{"SMILES": "Cc1c(N(C)CS(=O)(=O)O)c(=O)n(-c2ccccc2)n1C", "viability": "105% and 134%"}
{"SMILES": "C=C1CCN([C@H](C)[C@](O)(Cn2cncn2)c2ccc(F)cc2F)CC1", "viability": "30.1%"}
{"SMILES": "COc1cc2c(cc1OC)[C@@H]1Cc3ccc(OC)c(OC)c3CN1CC2", "viability": "112%"}
{"SMILES": "Nc1ccc(/N=N/c2ccccc2)c(N)n1", "viability": "85.9%"}
{"SMILES": "O=c1cc(-c2ccccc2)oc2cc(O)c(O)c(O)c12", "viability": "73.8%"}
{"SMILES": "COc1cc(NS(=O)(=O)c2ccc(N)cc2)ncn1", "viability": "90.9%"}
{"SMILES": "Cc1ccc([C@@H]2O[C@H](CO)[C@@H](O)[C@H](O)[C@H]2O)cc1Cc1ccc(-c2ccc(F)cc2)s1", "viability": "16.8%"}
{"data": "Mixed results", "concentration": "10 µM"}
{"SMILES": "CC(=O)Nc1nc(CN2CCC[C@H](Cc3cc(C)nc(C)c3)C2)cs1", "target or system": "5-hydroxytryptamine receptor 1E (HTR1E, Homo sapiens, UniProt P28566)", "assay": "ligand displacement", "endpoint": "inhibition", "result": "0.93%"}
{"SMILES": "Cn1cncc1[C@@](O)(COc1ccc(C#N)cc1-c1ccc(OC(F)(F)F)cc1)c1ccc(C#N)cc1", "target or system": "HEK293T", "assay": "high-content imaging", "conditions": "24 h", "endpoint": "cells with high Hoechst intensity", "result": "5.7%"}
{"note": "Excerpt of the above (study 1):"}
{"conditions": "0.05 µM", "remaining activity": "24.5%"}
{"conditions": "0.5 µM", "remaining activity": "37.3%"}
{"conditions": "0.025 µM", "remaining activity": "38%"}
